Published values pooled from the literature.
± gives the spread as reported.
VPS26A/VPS35/VPS29: VPS26A/VPS35/VPS29 (Homo sapiens, UniProt O75436+Q96QK1+Q9UBQ0)
UDP-3-O-acyl-N-acetylglucosamine deacetylase C40S: UDP-3-O-acyl-N-acetylglucosamine deacetylase (Pseudomonas aeruginosa, UniProt P47205, C40S)
Chrnd/Chrna1/Chrne G173K/S470W: Chrnd/Chrna1/Chrne (Mus musculus, UniProt P02716+P04756+P20782, G173K/S470W)

| SMILES | target | assay | test system | conditions | Kd |
| --- | --- | --- | --- | --- | --- |
| CC[C@H](C)[C@H](NC(=O)[C@H](CC(N)=O)NC(=O)[C@@H](N)CO)C(=O)N[C@@H](Cc1ccccc1)C(=O)N[C@@H](CC(=O)O)C(=O)N[C@@H](CC(=O)O)C(=O)N1CCC[C@H]1C(=O)N[C@@H](CC(C)C)C(=O)N[C@@H](CC(N)=O)C(=O)N[C@@H](C)C(=O)N[C@@H](Cc1ccccc1)C(=O)NCC(=O)NCC(=O)N[C@@H](CCC(N)=O)C(=O)O | VPS26A/VPS35/VPS29 | binding, ITC | – | pH 7.5, added: FAM21 peptides | 26.8 ± 4.3 µM |
| CSCC[C@H](NC(=O)CNC(=O)[C@H](Cc1ccccc1)NC(=O)[C@H](CC(=O)O)NC(=O)CNC(=O)c1ccc2c(c1)C(=O)OC21c2ccc(N(C)C)cc2Oc2cc(N(C)C)ccc21)C(=O)N[C@@H](CO)C(=O)N[C@@H](CCCNC(=N)N)C(=O)N[C@@H](CC(=O)O)C(=O)N[C@H](C(=O)N[C@@H](Cc1ccc(OP(=O)(O)O)cc1)C(=O)N[C@@H](CO)C(=O)N[C@H](C(=O)N[C@@H](CC(=O)O)C(=O)N[C@@H](Cc1ccc(O)cc1)C(=O)N[C@@H](Cc1ccc(O)cc1)C(=O)N[C@@H](CCCNC(=N)N)C(=O)N[C@H](C(=O)N[C@@H](CC(=O)O)C(=O)O)C(C)C)[C@@H](C)O)C(C)C | TNS2, SH2 domain (Homo sapiens, UniProt Q63HR2) | binding | – | – | 1.67 µM |
| Oc1ccc(Sc2ccc(O)cc2)cc1 | Heat shock protein 90 homolog (Candida albicans, UniProt P46598) | binding, fluorescence polarization competition | – | 3 h, room temperature, added: geldanamycin-FITC 5 nM | 45.6 ± 17 µM |
| C[C@@H](O)[C@H](NC(=O)c1ccc(C#Cc2ccccc2)cc1)C(=O)NCC1(C)NC(=O)NC1=O (some centres unmarked) | UDP-3-O-acyl-N-acetylglucosamine deacetylase C40S | binding | – | – | > 100 µM |
| NCCc1ccccc1 | SAR11_0271 Candidatus Pelagibacter | binding, ITC | – | one-set-of-sites model | 7.94 µM |
| C[N+](C)(C)C | Chrnd/Chrna1/Chrne G173K/S470W | resting state binding, agonist, single-channel kinetics | – | – | 17 µM |
| O=C(O)CCCN1CC=C(c2ccccc2)CC1 | Ubiquitin carboxyl-terminal hydrolase 39, ZnF-UBD domain (Homo sapiens, UniProt Q53GS9) | – | – | – | > 1000 µM |
| c1cc2c3c(cccc3c1)NC1(CCC3(CC1)Nc1cccc4cccc(c14)N3)N2 | Histidine protein kinase SaeS (saeS, Staphylococcus aureus, UniProt Q840P7) | binding | – | – | ~10 µM |
| CCCCCCCC(=O)OC[C@H](COP(=O)(O)O[C@@H]1[C@H](O)[C@H](OP(=O)(O)O)[C@@H](O)[C@H](O)[C@H]1O)OC(=O)CCCCCCC | PP2C family protein phosphatase (Vibrio splendidus, UniProt A0ABV4LX41, N199A) | – | – | – | 0.77 ± 0.063 µM |
| N[C@@H](Cc1ccc(O)c(I)c1)C(=O)O | Iodotyrosine deiodinase (Haliscomenobacter hydrossis, UniProt F4KU78, R38Q) | binding | – | – | 551 ± 21 µM |
| CC1(CNC(=O)c2ccc(-c3ccccc3)cc2)NC(=O)NC1=O (centres unmarked) | UDP-3-O-acyl-N-acetylglucosamine deacetylase C40S | binding | – | – | > 100 µM |
| c1cncc([C@@H]2CCCCN2)c1 | Chrnd/Chrna1/Chrne G173K/S470W | single-channel kinetics | – | K chain side site | 2.23 µM |
| CC[C@@H](C)[C@@H](NC(=O)[C@@H](Cc1ccc(O)cc1)NC(=O)[C@H]1CCCN1C(=O)[C@@H](CCCNC(=N)N)NC(=O)[C@H](N)Cc1c[nH]cn1)C(=O)N[C@H](C)C(=O)N[C@H](Cc1c[nH]cn1)C(=O)N[C@H](CCCNC(=N)N)C(=O)N[C@@H](C(=O)N[C@H](Cc1ccc(O)cc1)C(=O)N[C@H](CO)C(=O)N[C@H](Cc1ccccc1)C(N)=O)C(C)C | Programmed cell death 1 ligand 1 (CD274, Homo sapiens, UniProt Q9NZQ7) | microscale thermophoresis | – | 6 h, His-tagged protein | 5.8 ± 1 µM |
| CN1CCC[C@H]1c1cccnc1 | Chrnd/Chrna1/Chrne (Mus musculus, UniProt P02716+P04756+P20782, G173E) | – | – | – | 26 µM |
| Nc1nc2c(ncn2[C@@H]2O[C@@H]3COP(=O)(O)O[C@H]4[C@@H](O)[C@H](n5cnc6c(=O)[nH]c(N)nc65)O[C@@H]4COP(=O)(O)O[C@H]3[C@H]2O)c(=O)[nH]1 | Cell cycle histidine kinase CckA, cytoplasmic region (Caulobacter vibrioides, UniProt Q9X688) | isothermal titration calorimetry | Caulobacter crescentus | 12 °C, added: AMPPNP 5 mM | no binding |
| O=[N+]([O-])c1ccc2c(N=Nc3ccc4ccccc4c3O)c(O)cc(S(=O)(=O)O)c2c1 | Diphosphomevalonate decarboxylase (Staphylococcus epidermidis, UniProt Q9FD73, R193T) | – | – | – | 1.3 ± 0.3 µM |
| CSCC[C@H](NC(=O)[C@H](CC(C)C)NC(=O)[C@H](C)NC(=O)[C@H](CCCNC(=N)N)NC(=O)[C@H](Cc1ccc(OP(=O)(O)O)cc1)NC(=O)[C@H](Cc1ccccc1)NC(=O)[C@H](CC(N)=O)NC(=O)[C@H](CO)NC(=O)[C@H](CC(=O)O)NC(=O)[C@@H](NC(=O)[C@@H]1CCCN1C(=O)[C@H](CO)NC(=O)[C@@H]1CCCN1C(=O)[C@H](CC(C)C)NC(=O)c1ccc2c(c1)C(=O)OC21c2ccc(N(C)C)cc2Oc2cc(N(C)C)ccc21)[C@@H](C)O)C(=O)N[C@@H](CC(=O)O)C(=O)N[C@@H](CCC(=O)O)C(=O)N[C@@H](CCC(=O)O)C(=O)N[C@@H](CC(=O)O)C(=O)O | Proto-oncogene tyrosine-protein kinase Src, SH2 domain (SRC, Homo sapiens, UniProt P12931) | binding | – | – | 1.14 µM |
| CC[C@H](C)[C@H](NC(=O)[C@@H](NC(=O)[C@@H](NC(=O)[C@H](Cc1ccccc1)NC(=O)[C@H](C)NC(=O)[C@H](CCCNC(=N)N)NC(=O)CNC(=O)[C@@H]1CCCN1C(=O)CN)C(C)C)[C@@H](C)O)C(=O)O | H-2 class I histocompatibility antigen, D-D alpha chain, 18 (H2-D1, Mus musculus, UniProt P01900) | thermodynamic cycle calculation | – | – | ~130 µM |
| CC[C@H](C)[C@@H]1NC(=O)CNC(=O)CNC(=O)[C@H](C)NC(=O)[C@@H](N)CSSC[C@@H](C(N)=O)NC(=O)[C@H](CCCCN)NC(=O)[C@H](CC(C)C)NC(=O)[C@H](C)NC(=O)[C@H](CC(C)C)NC(=O)[C@H](CO)NC(=O)[C@H](Cc2c[nH]cn2)NC(=O)[C@H](Cc2ccccc2)NC1=O | Carbapenem-hydrolyzing beta-lactamase KPC (KPC-2, Klebsiella pneumoniae, UniProt Q9F663) | binding | – | – | 0.3 to 2 µM |
| CC[C@H](C)[C@H](NC(=O)[C@H](CC(=O)O)NC(=O)[C@H](C)NC(=O)[C@H](Cc1ccc(O)cc1)NC(=O)[C@H](CCCCN)NC(=O)c1ccc2c(c1)C(=O)OC21c2ccc(N(C)C)cc2Oc2cc(N(C)C)ccc21)C(=O)N[C@@H](CCC(=O)O)C(=O)N[C@@H](CO)C(=O)N[C@@H](CO)C(=O)N[C@@H](CC(N)=O)C(=O)N[C@@H](Cc1ccc(OP(=O)(O)O)cc1)C(=O)N[C@@H](CCSC)C(=O)N[C@@H](C)C(=O)N1CCC[C@H]1C(=O)N[C@@H](Cc1ccc(O)cc1)C(=O)N[C@@H](CC(=O)O)C(=O)N[C@@H](CC(N)=O)C(=O)N[C@@H](Cc1ccc(O)cc1)C(=O)N[C@@H](CC(=O)O)C(=O)O | SH2 domain-containing protein 2A, SH2 domain (SH2D2A, Homo sapiens, UniProt Q9NP31) | – | – | – | 0.388 µM |
| CC[C@H](C)[C@H](NC(=O)[C@H](N)Cc1ccc(O)cc1)C(=O)N[C@H](C(=O)N[C@@H](CC(=O)O)C(=O)N[C@H](C(=O)N1CCC[C@H]1C(=O)N[C@@H](CC(C)C)C(=O)NCC(=O)N[C@H](C(=O)N[C@@H](Cc1ccccc1)C(=O)N[C@@H](CC(C)C)C(=O)N[C@@H](CO)C(=O)N[C@@H](CO)C(=O)N[C@@H](CC(C)C)C(=O)N[C@@H](CCCCN)C(=O)N[C@@H](CCCNC(=N)N)C(=O)N[C@@H](CS)C(=O)O)C(C)C)[C@@H](C)O)[C@@H](C)CC | VPS26A/VPS35/VPS29 | binding | – | – | 0.763 ± 0.055 µM |
| CC1(CNC(=O)c2ccc(C#CC#Cc3ccccc3)cc2)NC(=O)NC1=O (centres unmarked) | UDP-3-O-acyl-N-acetylglucosamine deacetylase C40S | binding | – | – | 63.9 µM |
| CC[C@H](CO)Nc1nc(NCc2ccc(-c3ccccn3)cc2)c2ncn(C(C)C)c2n1 | Ribosomal protein S6 kinase alpha-3 (RPS6KA3, Homo sapiens, UniProt P51812) | binding, competition affinity chromatography | SH-SY5Y cell extract | – | 27.1 µM |
| CC(C)(C)C(=O)C(Oc1ccc(Cl)cc1)n1ccnc1 (centres unmarked) | Cytochrome P450 2A6 (CYP2A6, Homo sapiens, UniProt P11509) | binding | – | 20 min, pH 7.4, purified protein, 2% DMSO | 33.8 µM |
| O=C(NO)[C@H]1COC(c2ccc(OC(F)(F)F)c(Cl)c2)=N1 | UDP-3-O-acyl-N-acetylglucosamine deacetylase C40S | bio-layer interferometry | – | pH 7.0, 298 K, added: ZnCl2 equimolar | 0.744 µM |
| CC[C@H](C)[C@H](NC(=O)[C@H](CC(N)=O)NC(=O)[C@H](CCCCN)NC(=O)[C@H](CC(C)C)NC(=O)[C@@H](NC(=O)[C@H](CCCCN)NC(=O)[C@H](CO)NC(=O)[C@H](CC(C)C)NC(=O)[C@H](CO)NC(=O)[C@@H](NC(=O)[C@@H](NC(=O)[C@@H](NC(=O)[C@H](CC(=O)O)NC(=O)[C@H](CCCCN)NC(=O)[C@H](C)NC(=O)[C@H](C)NC(=O)[C@H](CCCCN)NC(=O)[C@H](Cc1ccc(O)cc1)NC(=O)[C@@H](NC(=O)[C@@H](N)CC(N)=O)[C@@H](C)CC)C(C)C)[C@@H](C)O)[C@@H](C)O)C(C)C)C(=O)N[C@@H](CC(N)=O)C(=O)N[C@@H](CCCCN)C(=O)O | Vinculin, Vd1 head domain (VCL, Homo sapiens, UniProt P18206) | binding, isothermal titration calorimetry | – | 25 °C, Vd1 domain | 0.0049 ± 0.0009 µM |

A few entries again:
| SMILES | target | assay | test system | conditions | Kd |
| --- | --- | --- | --- | --- | --- |
| C[N+](C)(C)C | Chrnd/Chrna1/Chrne G173K/S470W | resting state binding, agonist, single-channel kinetics | – | – | 17 µM |
| CC1(CNC(=O)c2ccc(C#CC#Cc3ccccc3)cc2)NC(=O)NC1=O (centres unmarked) | UDP-3-O-acyl-N-acetylglucosamine deacetylase C40S | binding | – | – | 63.9 µM |
